Results gathered from unrelated publications.
Values joined by “and” are separate records of one study, mostly repeats; a detail may differ. Numbers after ± are the reported error.
HCRTR1: Orexin/Hypocretin receptor type 1 (HCRTR1, Homo sapiens, UniProt O43613)
UniProt O43613, sequence (whole entry, looked up): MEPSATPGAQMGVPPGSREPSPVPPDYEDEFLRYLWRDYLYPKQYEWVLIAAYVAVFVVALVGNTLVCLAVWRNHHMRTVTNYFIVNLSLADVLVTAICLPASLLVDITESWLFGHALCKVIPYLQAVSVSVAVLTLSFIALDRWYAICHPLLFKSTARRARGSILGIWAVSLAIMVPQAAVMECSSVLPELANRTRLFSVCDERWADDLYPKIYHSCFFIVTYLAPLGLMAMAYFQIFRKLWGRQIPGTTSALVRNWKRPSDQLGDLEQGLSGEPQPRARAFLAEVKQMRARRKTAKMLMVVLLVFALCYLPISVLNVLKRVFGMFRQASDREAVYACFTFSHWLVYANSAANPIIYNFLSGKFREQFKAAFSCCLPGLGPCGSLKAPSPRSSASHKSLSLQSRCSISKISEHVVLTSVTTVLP
LRP1 CR3 domain: LRP1, CR3 domain (Homo sapiens, UniProt Q07954)
UniProt Q07954, sequence (whole entry, unmodified, looked up): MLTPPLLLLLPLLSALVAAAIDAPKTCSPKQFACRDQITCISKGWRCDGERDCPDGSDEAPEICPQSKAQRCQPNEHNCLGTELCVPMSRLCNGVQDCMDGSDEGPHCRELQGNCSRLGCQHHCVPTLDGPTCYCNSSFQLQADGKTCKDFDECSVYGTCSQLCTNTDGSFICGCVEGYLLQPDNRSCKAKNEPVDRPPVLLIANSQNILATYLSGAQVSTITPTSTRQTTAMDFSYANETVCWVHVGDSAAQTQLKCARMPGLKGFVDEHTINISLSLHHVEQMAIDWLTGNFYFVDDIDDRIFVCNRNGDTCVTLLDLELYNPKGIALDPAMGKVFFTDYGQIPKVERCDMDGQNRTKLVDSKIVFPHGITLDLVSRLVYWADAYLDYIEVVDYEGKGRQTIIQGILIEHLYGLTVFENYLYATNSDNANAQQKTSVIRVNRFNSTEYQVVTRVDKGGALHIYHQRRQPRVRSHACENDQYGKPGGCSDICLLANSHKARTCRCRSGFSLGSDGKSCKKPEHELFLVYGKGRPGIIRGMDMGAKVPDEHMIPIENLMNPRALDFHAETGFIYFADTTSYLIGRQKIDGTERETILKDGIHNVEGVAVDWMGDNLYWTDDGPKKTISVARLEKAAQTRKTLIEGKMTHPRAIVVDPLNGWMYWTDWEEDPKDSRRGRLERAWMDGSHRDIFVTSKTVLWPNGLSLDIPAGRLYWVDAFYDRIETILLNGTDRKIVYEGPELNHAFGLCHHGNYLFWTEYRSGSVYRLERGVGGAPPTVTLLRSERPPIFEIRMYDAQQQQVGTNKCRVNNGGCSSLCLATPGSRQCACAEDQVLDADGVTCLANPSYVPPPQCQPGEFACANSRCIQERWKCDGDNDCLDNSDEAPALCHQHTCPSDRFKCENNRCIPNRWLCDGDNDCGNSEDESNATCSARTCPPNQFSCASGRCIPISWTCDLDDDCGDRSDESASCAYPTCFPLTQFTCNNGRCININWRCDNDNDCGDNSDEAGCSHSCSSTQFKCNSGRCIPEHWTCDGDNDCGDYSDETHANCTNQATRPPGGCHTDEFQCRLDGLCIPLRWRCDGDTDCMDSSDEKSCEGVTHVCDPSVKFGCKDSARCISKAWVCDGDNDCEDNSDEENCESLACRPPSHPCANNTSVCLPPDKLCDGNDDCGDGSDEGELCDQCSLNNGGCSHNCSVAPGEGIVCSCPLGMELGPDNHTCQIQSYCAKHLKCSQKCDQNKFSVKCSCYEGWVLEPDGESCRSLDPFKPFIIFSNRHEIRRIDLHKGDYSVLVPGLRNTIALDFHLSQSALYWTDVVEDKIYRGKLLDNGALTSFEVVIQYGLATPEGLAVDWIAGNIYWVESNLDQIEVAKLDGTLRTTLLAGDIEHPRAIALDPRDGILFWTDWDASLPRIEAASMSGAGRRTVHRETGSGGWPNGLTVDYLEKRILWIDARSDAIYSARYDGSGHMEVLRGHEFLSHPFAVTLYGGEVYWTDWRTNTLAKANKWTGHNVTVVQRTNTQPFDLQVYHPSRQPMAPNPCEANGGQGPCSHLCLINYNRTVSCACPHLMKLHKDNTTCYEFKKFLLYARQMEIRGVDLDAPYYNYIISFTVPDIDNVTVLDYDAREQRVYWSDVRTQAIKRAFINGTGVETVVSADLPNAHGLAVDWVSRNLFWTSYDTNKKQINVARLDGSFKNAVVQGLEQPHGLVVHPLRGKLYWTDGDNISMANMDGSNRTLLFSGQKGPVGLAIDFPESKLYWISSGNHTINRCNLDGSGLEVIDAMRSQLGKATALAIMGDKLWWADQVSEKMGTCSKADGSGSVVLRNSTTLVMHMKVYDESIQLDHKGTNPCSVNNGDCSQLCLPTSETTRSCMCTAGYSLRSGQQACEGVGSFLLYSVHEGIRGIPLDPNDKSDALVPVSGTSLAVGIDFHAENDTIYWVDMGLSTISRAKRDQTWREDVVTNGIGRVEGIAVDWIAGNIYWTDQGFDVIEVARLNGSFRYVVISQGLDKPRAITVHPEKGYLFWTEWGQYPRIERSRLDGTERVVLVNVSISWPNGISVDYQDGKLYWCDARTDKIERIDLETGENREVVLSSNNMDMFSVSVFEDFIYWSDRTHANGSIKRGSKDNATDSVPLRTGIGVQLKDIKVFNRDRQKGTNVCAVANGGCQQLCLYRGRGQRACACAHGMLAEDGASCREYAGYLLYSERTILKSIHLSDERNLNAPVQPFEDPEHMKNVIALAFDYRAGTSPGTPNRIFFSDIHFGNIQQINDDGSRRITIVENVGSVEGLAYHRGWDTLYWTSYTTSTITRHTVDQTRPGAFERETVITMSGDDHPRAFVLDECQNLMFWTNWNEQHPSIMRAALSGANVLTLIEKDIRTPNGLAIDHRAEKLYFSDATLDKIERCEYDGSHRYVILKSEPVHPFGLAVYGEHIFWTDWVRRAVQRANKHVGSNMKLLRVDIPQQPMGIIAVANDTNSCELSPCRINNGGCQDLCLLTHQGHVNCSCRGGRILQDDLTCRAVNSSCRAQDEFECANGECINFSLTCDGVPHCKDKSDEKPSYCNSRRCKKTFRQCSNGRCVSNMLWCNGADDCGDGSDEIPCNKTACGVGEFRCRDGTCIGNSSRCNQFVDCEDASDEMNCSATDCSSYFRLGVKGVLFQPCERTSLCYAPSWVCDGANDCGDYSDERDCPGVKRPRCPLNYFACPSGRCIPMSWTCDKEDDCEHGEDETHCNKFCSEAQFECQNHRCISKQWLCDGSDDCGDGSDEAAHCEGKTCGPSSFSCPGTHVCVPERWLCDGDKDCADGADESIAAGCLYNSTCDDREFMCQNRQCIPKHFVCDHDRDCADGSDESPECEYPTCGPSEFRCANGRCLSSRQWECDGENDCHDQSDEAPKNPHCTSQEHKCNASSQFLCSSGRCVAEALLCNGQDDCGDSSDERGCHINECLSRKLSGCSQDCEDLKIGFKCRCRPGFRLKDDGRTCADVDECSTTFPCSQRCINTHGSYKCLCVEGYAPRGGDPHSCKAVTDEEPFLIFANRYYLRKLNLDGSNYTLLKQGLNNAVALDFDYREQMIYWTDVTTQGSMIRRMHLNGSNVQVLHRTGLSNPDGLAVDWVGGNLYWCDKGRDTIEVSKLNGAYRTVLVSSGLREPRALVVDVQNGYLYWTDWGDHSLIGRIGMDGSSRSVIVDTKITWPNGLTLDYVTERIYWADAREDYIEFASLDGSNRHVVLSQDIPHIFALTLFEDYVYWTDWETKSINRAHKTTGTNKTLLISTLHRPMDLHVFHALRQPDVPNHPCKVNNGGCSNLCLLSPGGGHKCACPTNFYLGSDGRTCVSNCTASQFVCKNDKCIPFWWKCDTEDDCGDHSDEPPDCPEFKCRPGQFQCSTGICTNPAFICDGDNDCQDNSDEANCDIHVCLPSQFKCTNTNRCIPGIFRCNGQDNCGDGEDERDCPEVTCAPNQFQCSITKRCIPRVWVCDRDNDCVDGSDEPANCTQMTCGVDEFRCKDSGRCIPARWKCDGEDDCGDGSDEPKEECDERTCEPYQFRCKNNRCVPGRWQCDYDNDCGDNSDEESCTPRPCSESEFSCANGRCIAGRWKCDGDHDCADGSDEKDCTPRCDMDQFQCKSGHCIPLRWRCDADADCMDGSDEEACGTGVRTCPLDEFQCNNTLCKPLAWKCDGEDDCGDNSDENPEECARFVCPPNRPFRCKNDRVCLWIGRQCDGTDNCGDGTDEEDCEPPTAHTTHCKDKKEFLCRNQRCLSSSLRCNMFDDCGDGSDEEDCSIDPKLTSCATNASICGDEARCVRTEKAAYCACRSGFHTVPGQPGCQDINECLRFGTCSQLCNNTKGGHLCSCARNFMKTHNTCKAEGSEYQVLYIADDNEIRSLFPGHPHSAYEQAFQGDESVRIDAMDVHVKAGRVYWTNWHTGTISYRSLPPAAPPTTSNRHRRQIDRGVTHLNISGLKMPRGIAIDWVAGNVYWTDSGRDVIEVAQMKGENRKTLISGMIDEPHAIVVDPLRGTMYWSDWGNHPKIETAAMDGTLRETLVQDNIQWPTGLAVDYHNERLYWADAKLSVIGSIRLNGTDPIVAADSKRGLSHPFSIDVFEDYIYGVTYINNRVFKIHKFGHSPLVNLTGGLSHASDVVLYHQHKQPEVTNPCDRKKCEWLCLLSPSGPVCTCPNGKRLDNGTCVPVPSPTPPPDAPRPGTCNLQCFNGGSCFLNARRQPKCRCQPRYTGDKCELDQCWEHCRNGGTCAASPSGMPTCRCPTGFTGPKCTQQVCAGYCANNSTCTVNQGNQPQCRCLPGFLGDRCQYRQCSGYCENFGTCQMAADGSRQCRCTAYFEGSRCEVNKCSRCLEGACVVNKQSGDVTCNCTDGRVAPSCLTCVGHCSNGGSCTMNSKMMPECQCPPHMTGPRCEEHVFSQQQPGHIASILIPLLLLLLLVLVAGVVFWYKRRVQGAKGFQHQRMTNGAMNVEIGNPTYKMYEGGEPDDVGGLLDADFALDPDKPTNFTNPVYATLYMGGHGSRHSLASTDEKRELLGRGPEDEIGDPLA
PPIA: Peptidyl-prolyl cis-trans isomerase A (PPIA, Homo sapiens, UniProt P62937)
UniProt P62937, sequence (whole entry, looked up): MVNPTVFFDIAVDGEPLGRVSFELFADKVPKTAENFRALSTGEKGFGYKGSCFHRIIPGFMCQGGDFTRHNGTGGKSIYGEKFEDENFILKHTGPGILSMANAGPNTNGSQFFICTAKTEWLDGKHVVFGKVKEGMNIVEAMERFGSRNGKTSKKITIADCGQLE
GRB2: Growth factor receptor-bound protein 2 (GRB2, Homo sapiens, UniProt P62993)

Molecule	target	assay	system	setting	Kd
COCc1c(C(C)C)nc(C(C)C)c(/C=C/[C@@H](O)C[C@@H](O)CC(=O)O)c1-c1ccc(F)cc1	Cytochrome P450 2C8 (CYP2C8, Homo sapiens, UniProt P10632, K399R/R139K)	ligand binding, equilibrium spectral binding	purified protein	pH 7.4, 25 °C, high-affinity site, 1% CHAPS	0.16 ± 0.02 µM
COC(=O)[C@@H](N)CCCN=C(N)N	LRP1, CR5 domain (Homo sapiens, UniProt Q07954)	tryptophan fluorescence titration	–	pH 7.4, 298 K, CR5 domain, ionic strength 0.02	580 ± 30 µM
COc1ccc(CC2c3cc(OC)c(OC)cc3CCN2CC(=O)NCCCN(C)C)cc1OC (centres unmarked)	HCRTR1	–	–	–	> 10 µM
COC(=O)[C@@H](N)CCCCN	LRP1 CR3 domain	binding, tryptophan fluorescence titration	isolated CR3 domain	pH 7.4, 298 K, ionic strength 0.17	370 ± 40 µM
NC[C@H]1O[C@H](O[C@H]2[C@H](O)[C@@H](O[C@H]3O[C@H](CO)[C@@H](O)[C@H](N)[C@H]3O)[C@H](N)C[C@@H]2N)[C@H](N)C[C@@H]1O	HIV-1 SL3 RNA stem-loop	binding, ESI-FTMS titration	–	pH 7.5	38.7 ± 3.7 µM
CC1C(=O)N=C(N)N1CCCC(N)C(=O)O (centres unmarked)	Advanced glycosylation end product-specific receptor (AGER, Homo sapiens, UniProt Q15109)	binding, fluorescence	–	pH 6.5	0.044 µM
CSCC[C@H](NC(=O)[C@H](CC(C)C)NC(=O)[C@H](CCCCN)NC(=O)[C@H](CCCCN)NC(=O)[C@H](Cc1c[nH]cn1)NC(=O)[C@H](CCCNC(=N)N)NC(=O)[C@H](CO)NC(=O)[C@@H](NC(=O)[C@H](CO)NC(=O)[C@H](CCC(N)=O)NC(=O)CNC(=O)[C@H](CCCCN)NC(=O)[C@H](CCCCN)NC(=O)[C@H](CO)NC(=O)[C@H](CCCCN)NC(=O)[C@H](CC(C)C)NC(=O)[C@H](Cc1c[nH]cn1)NC(=O)[C@H](CO)NC(=O)[C@H](Cc1ccc(O)cc1)NC(C)=O)[C@@H](C)O)C(=O)N[C@@H](Cc1ccccc1)C(=O)N[C@@H](CCCCN)C(=O)N[C@H](C(=O)N[C@@H](CCC(=O)O)C(N)=O)[C@@H](C)O	Protein S100-B (Homo sapiens, UniProt P04271)	binding, NMR line shape analysis	–	35 °C, high salt	30 ± 6 µM
CCCOc1cc2c(cc1OC)CCN(CC(=O)NCc1ccccc1)C2Cc1ccc(OC)c(OC)c1 (centres unmarked)	HCRTR1	–	–	–	0.0173 ± 0.0031 µM
COC(=O)[C@H](CCCCN)NC(C)=O	LRP1 CR3 domain	binding, tryptophan fluorescence titration	isolated CR3 domain	pH 7.4, 298 K, ionic strength 0.02	1900 ± 90 µM
CC[C@H](C)[C@H](NC(=O)[C@H](Cc1ccc(O)cc1)NC(=O)[C@H](CCCCN)NC(=O)[C@H](CO)NC(=O)[C@@H](NC(=O)[C@H](Cc1c[nH]cn1)NC(=O)[C@H](CO)NC(=O)[C@@H]1CCCN1)[C@@H](C)CC)C(=O)N[C@@H](CC(C)C)C(=O)N[C@@H](CCCNC(=N)N)C(=O)N[C@@H](Cc1c[nH]c2ccccc12)C(=O)N[C@@H](CCCNC(=N)N)C(=O)N1CCC[C@H]1C(=O)N[C@@H](CCCCN)C(=O)O	Platelet-derived growth factor subunit B, homodimer (Homo sapiens, UniProt P01127)	binding, surface plasmon resonance	–	–	0.2 µM
CCCCCCNC(=O)Nc1ccc(CNC(=O)CN2CCc3cc(OC)c(OC)cc3C2Cc2ccc(OC)c(OC)c2)cc1 (centres unmarked)	HCRTR1	–	–	–	3.68 ± 1.8 µM
c1ccc2c(c1)cc1ccc3cccc4ccc2c1c34	Cytochrome P450 1B1 (CYP1B1, Homo sapiens, UniProt Q16678)	binding, fluorescence	–	pH 7.4	< 2.5 µM and 1 µM
COc1cc(OC)cc(C(=O)Nc2ccc(Cc3ccc(NC(=O)c4cc(OC)cc(OC)c4)cc3)cc2)c1	PPIA	binding, SPR	–	pH 7.4	3.3 µM
CN(CCOc1ccc(CC2SC(=O)NC2=O)cc1)c1ccccn1 (centres unmarked)	Cytochrome P450 2C8 (CYP2C8, Homo sapiens, UniProt P10632)	ligand binding, equilibrium spectral binding	purified protein	pH 7.4, 25 °C, high-affinity site, 1% CHAPS	0.002 ± 0.001 µM
COc1ccc(CC2c3cc(OCC(F)(F)F)c(OC)cc3CCN2CC(=O)NCc2ccccn2)cc1OC (centres unmarked)	HCRTR1	–	–	–	0.0225 ± 0.0027 µM
hyaluronan dodecasaccharide	human CD44 link domain	SPR	–	pH 7.4	55 µM
CC1=C(/C=C/C(C)=C/C=C/C(C)=C/C=C/C=C(C)/C=C/C=C(C)/C=C/C2=C(C)CCCC2(C)C)C(C)(C)CCC1	Glutathione S-transferase P (GSTP1, Homo sapiens, UniProt P09211)	surface plasmon resonance	–	25 °C, 1:1 binding model	1.09 ± 0.01 µM
c1ccc2nc3ccccc3cc2c1	HIV-1 nucleocapsid-SL2 RNA complex	binding, ESI-FTMS	–	pH 7.5	17.1 ± 0.4 µM
NC(=O)C[C@H](NC(=O)C1(NC(=O)[C@H](Cc2ccc(C(C(=O)O)C(=O)O)cc2)NC(=O)C(=O)O)CCCCC1)C(=O)NCCCc1cccc2c(OC(=O)CCCCCNC(=O)CCCC[C@@H]3SC[C@@H]4NC(=O)N[C@@H]43)cccc12	Growth factor receptor-bound protein 2, SH2 (GRB2, Homo sapiens, UniProt P62993)	binding, SPR	–	–	0.405 µM
CC(C)C[C@H](NC(=O)[C@H](CC(N)=O)NC(=O)[C@H](CCCNC(=N)N)NC(=O)[C@H](CC(=O)O)NC(=O)[C@@H](NC(=O)[C@@H]1CCCN1C(=O)[C@@H]1CCCN1C(=O)[C@H](C)N)C(C)C)C(=O)N[C@@H](CCCCN)C(=O)N1CCC[C@H]1C(=O)N[C@@H](CC(=O)O)C(=O)N[C@@H](CCCNC(=N)N)C(=O)O	GRB2	binding, ITC	–	pH 8	99 µM
Cn1nc(C(C)(C)C)cc1NC(=O)Nc1ccc(Oc2ccncc2)cc1	Mitogen-activated protein kinase 13, non-phosphorylated (MAPK13, Homo sapiens, UniProt O15264)	inhibitor, differential scanning fluorimetry	–	unphosphorylated kinase	2.6 ± 0.5 µM

Molecule	target	assay	system	setting	Kd
CCOc1cc2c(cc1OC)CCN(CC(=O)NCc1ccccc1)C2Cc1ccc(OC)c(OC)c1 (centres unmarked)	HCRTR1	–	–	–	0.03 ± 0.009 µM
Oc1ccc(Sc2ccc(O)cc2)cc1	Regulator of G-protein signaling 17 (Homo sapiens, UniProt Q9UGC6)	binding, NMR	–	–	500 µM
CC(=O)N[C@H]1C(O)O[C@H](CO)[C@H](O)[C@@H]1O (mixture of isomers)	CLEC10A (Homo sapiens, UniProt Q8IUN9)	ITC	–	pH 7.4, 298 K	14.7 µM
CCCCCCCC/C=C\CCCCCCCC(=O)OC[C@H](COP(=O)(O)OCC(O)COP(=O)(O)OC[C@@H](COC(=O)CCCCCCC/C=C\CCCCCCCC)OC(=O)CCCCCCC/C=C\CCCCCCCC)OC(=O)CCCCCCC/C=C\CCCCCCCC (some centres unmarked)	Mitochondrial import inner membrane translocase subunit TIM50, intermembrane space domain (TIM50, Saccharomyces cerevisiae, UniProt Q02776)	liposome cosedimentation	–	pH 7.4, room temperature, POPC liposomes	10.5 µM
COC(=O)[C@@H](N)Cc1c[nH]cn1	LRP1, CR8 domain D1085A (Homo sapiens, UniProt Q07954, D1085A)	binding, tryptophan fluorescence titration	–	pH 5.5, low ionic strength	4600 ± 50 µM
Nc1ccn([C@H]2C[C@H](O)[C@@H](CO)O2)c(=O)n1	Thymidine kinase 2, mitochondrial (Homo sapiens, UniProt O00142)	binding, ITC	–	–	13.2 µM
phosphatidylinositol 4,5-bisphosphate	Ezrin, FERM domain (EZR, Homo sapiens, UniProt P15311)	isothermal titration calorimetry	–	pH 7.5, 25 °C	3.31 ± 0.888 µM
CC(C)C[C@H](NC(=O)[C@H](CC(N)=O)NC(=O)[C@H](CCCNC(=N)N)NC(=O)[C@H](CC(=O)O)NC(=O)[C@@H](NC(=O)[C@@H]1CCCN1C(=O)[C@@H]1CCCN1C(=O)[C@@H]1CCCN1)C(C)C)C(=O)N[C@@H](CCCCN)C(=O)N1CCC[C@H]1C(=O)N[C@@H](C)C(=O)N[C@@H](CCCNC(=N)N)C(=O)O	GRB2	binding, ITC	–	pH 8	49 µM
COc1ccc(CC2c3cc(OC)c(OC)cc3CCN2CC(=O)OCc2ccccc2)cc1OC (centres unmarked)	HCRTR1	–	–	–	> 10 µM
COc1cccc2c1C(=O)c1c(O)c3c(c(O)c1C2=O)C[C@@](O)(C(C)=O)C[C@@H]3O[C@H]1C[C@H](N)[C@H](O)[C@H](C)O1	HIV-1 nucleocapsid-SL2 RNA complex	binding, ESI-FTMS	–	pH 7.5	44.7 ± 4 µM
CCNC(=O)[C@H]1O[C@@H](n2cnc3c(NCCCCNC(=O)CCCCCNC(=O)COc4ccc(/C=C/c5ccc6n5[B-](F)(F)[N+]5=C(c7cccs7)C=CC5=C6)cc4)ncnc32)[C@H](O)[C@@H]1O	Adenosine receptor A1 (ADORA1, Homo sapiens, UniProt P30542)	binding, NanoBRET saturation	HEK293 expressing Nluc-A1	1 h, 37 °C	0.167 ± 0.0744 µM
COc1ccc(CC2c3cc(OC)c(OC)cc3CCN2CC(=O)N2CCC(c3ccccc3)CC2)cc1OC (centres unmarked)	HCRTR1	–	–	–	> 10 µM
CC[n+]1c(-c2ccccc2)c2cc(N)ccc2c2ccc(N)cc21	HIV-1 SL3 RNA stem-loop	binding, ESI-FTMS titration	–	pH 7.5	1.9 ± 0.2 µM
CC[C@H](C)[C@H](NC(=O)[C@@H]1CCCN1)C(=O)N1CCC[C@H]1C(=O)N[C@H](C(=O)N[C@@H](CC(=O)O)C(=O)N[C@@H](CCCNC(=N)N)C(=O)N[C@@H](CC(N)=O)C(=O)N[C@@H](CC(C)C)C(=O)N[C@@H](CCCCN)C(=O)N1CCC[C@H]1C(=O)N[C@@H](CC(=O)O)C(=O)N[C@@H](CCCNC(=N)N)C(=O)O)C(C)C	GRB2	binding, ITC	–	pH 8	564 µM
Cn1cc(NC(=O)c2cc(NC(=O)c3cc(NC=O)cn3C)cn2C)cc1C(=O)NCCC(=N)N	HIV-1 SL4 RNA stem-loop	binding, ESI-FTMS titration	–	pH 7.5	57.9 ± 3.5 µM
Nc1ccn([C@H]2C[C@H](O)[C@@H](COP(=O)(O)OP(=O)(O)OP(=O)(O)O)O2)c(=O)n1	DNA polymerase 3 (dpo3, Saccharolobus solfataricus, UniProt P95979, D236A)	nucleotide incorporation, pre-steady-state single turnover	–	correct incorporation, template G, added: primer-template DNA	61 ± 25 µM
[I-].[K+]	SLC4A1 (Homo sapiens, UniProt P02730)	chloride exchange flux, inhibitor, Dixon plot	human red blood cells	pH 7.2, 0 °C, intracellular Cl 133 mM, added: external Cl 5.5 or 0.6 mM	890 µM
CSCC[C@H](NC(=O)[C@H](CC(C)C)NC(=O)[C@H](CC(C)C)NC(=O)[C@H](CC(C)C)NC(=O)[C@H](C)N)C(=O)N[C@@H](Cc1ccc(O)cc1)C(=O)N[C@@H](CCCNC(=N)N)C(=O)N[C@@H](CCCNC(=N)N)C(=O)O	dnaK (Escherichia coli, UniProt P0A6Y8)	peptide binding, surface plasmon resonance	–	added: ATP	1.95 µM
CCOc1cc2c(cc1OC)CCN(CC(=O)NCc1cccnc1)C2Cc1ccc(OC)c(OC)c1 (centres unmarked)	HCRTR1	–	–	–	0.0157 ± 0.0017 µM
COc1cc(OC)cc(C(=O)Nc2ccc(Cc3ccc(NC(=O)c4cc(OC)cc(OC)c4)c(C(=O)O)c3)cc2C(=O)O)c1	PPIA	binding, SPR	–	pH 7.4	0.58 µM

For quick reference, copied from above:
Molecule	target	assay	system	setting	Kd
c1ccc2nc3ccccc3cc2c1	HIV-1 nucleocapsid-SL2 RNA complex	binding, ESI-FTMS	–	pH 7.5	17.1 ± 0.4 µM
NC(=O)C[C@H](NC(=O)C1(NC(=O)[C@H](Cc2ccc(C(C(=O)O)C(=O)O)cc2)NC(=O)C(=O)O)CCCCC1)C(=O)NCCCc1cccc2c(OC(=O)CCCCCNC(=O)CCCC[C@@H]3SC[C@@H]4NC(=O)N[C@@H]43)cccc12	Growth factor receptor-bound protein 2, SH2 (GRB2, Homo sapiens, UniProt P62993)	binding, SPR	–	–	0.405 µM
CC(C)C[C@H](NC(=O)[C@H](CC(N)=O)NC(=O)[C@H](CCCNC(=N)N)NC(=O)[C@H](CC(=O)O)NC(=O)[C@@H](NC(=O)[C@@H]1CCCN1C(=O)[C@@H]1CCCN1C(=O)[C@H](C)N)C(C)C)C(=O)N[C@@H](CCCCN)C(=O)N1CCC[C@H]1C(=O)N[C@@H](CC(=O)O)C(=O)N[C@@H](CCCNC(=N)N)C(=O)O	GRB2	binding, ITC	–	pH 8	99 µM
Cn1nc(C(C)(C)C)cc1NC(=O)Nc1ccc(Oc2ccncc2)cc1	Mitogen-activated protein kinase 13, non-phosphorylated (MAPK13, Homo sapiens, UniProt O15264)	inhibitor, differential scanning fluorimetry	–	unphosphorylated kinase	2.6 ± 0.5 µM
CCOc1cc2c(cc1OC)CCN(CC(=O)NCc1ccccc1)C2Cc1ccc(OC)c(OC)c1 (centres unmarked)	HCRTR1	–	–	–	0.03 ± 0.009 µM
